Measured values collected from several papers.
Protocols differ between the studies behind these lines. Several values in a cell are separate wells, animals, samples, runs or records. Numbers after ± are the reported error.
PPARA: Peroxisome proliferator-activated receptor alpha (PPARA, Homo sapiens, UniProt Q07869)
Chain of UniProt Q07869 (whole entry, looked up): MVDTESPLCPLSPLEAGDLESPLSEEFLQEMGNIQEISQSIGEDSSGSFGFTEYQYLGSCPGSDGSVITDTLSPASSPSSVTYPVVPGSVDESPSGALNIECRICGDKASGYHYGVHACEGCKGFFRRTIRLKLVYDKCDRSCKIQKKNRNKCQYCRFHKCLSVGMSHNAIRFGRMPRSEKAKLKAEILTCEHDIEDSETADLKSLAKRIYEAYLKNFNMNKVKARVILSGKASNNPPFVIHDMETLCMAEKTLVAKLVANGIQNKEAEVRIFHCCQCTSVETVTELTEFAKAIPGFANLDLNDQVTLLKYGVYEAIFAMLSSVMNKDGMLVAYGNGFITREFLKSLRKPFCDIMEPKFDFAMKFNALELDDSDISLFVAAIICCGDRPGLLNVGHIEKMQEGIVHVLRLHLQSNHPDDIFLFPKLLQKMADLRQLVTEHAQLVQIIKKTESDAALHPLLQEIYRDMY
YWHAG/RELA phospho-Ser45 p65 peptide: YWHAG/RELA, phospho-Ser45 p65 peptide (Homo sapiens, UniProt P61981+Q04206)
Chain of UniProt Q04206 (whole entry, looked up): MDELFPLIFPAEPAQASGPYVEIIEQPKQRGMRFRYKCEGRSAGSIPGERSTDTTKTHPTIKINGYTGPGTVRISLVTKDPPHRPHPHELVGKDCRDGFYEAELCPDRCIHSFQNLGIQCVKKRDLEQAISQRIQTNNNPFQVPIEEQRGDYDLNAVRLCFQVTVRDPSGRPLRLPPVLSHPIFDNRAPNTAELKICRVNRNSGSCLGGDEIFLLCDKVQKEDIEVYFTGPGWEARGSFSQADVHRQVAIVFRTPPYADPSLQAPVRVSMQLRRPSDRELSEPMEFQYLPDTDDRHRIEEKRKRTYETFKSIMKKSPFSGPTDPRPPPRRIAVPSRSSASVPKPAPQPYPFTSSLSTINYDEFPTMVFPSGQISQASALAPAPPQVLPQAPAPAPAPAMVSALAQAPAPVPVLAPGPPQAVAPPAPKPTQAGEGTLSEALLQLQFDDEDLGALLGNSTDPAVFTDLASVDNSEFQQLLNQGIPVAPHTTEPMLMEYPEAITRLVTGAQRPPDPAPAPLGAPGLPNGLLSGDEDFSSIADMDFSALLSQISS
Chain of UniProt P61981 (whole entry, looked up): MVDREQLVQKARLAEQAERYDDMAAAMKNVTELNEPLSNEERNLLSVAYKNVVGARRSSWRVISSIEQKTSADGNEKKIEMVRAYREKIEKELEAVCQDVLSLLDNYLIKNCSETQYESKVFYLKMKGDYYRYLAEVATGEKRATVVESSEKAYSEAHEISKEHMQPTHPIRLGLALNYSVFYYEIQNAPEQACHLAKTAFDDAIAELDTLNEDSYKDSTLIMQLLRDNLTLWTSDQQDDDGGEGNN
Nuclear receptor subfamily 2 group C member 2 ligand-binding domain: Nuclear receptor subfamily 2 group C member 2, ligand-binding domain (Homo sapiens, UniProt P49116)
Chain of UniProt P49116 (whole entry, looked up): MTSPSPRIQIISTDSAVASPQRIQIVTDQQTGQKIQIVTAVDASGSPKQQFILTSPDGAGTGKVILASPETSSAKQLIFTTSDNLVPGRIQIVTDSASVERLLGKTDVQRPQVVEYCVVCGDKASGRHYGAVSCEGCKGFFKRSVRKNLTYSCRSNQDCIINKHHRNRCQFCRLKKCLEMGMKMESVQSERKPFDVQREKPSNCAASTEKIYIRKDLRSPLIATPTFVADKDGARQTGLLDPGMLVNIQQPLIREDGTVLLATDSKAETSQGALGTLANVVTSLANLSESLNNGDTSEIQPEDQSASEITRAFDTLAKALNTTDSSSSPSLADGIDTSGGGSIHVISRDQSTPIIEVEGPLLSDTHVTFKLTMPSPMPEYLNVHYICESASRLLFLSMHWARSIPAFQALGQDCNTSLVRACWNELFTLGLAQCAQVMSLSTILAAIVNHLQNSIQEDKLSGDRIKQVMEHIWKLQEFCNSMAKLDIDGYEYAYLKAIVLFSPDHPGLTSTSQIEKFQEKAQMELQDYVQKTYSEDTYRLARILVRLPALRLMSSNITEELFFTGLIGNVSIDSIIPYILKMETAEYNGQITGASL
PKLR: Pyruvate kinase PKLR (PKLR, Homo sapiens, UniProt P30613)
Chain of UniProt P30613 (whole entry, looked up): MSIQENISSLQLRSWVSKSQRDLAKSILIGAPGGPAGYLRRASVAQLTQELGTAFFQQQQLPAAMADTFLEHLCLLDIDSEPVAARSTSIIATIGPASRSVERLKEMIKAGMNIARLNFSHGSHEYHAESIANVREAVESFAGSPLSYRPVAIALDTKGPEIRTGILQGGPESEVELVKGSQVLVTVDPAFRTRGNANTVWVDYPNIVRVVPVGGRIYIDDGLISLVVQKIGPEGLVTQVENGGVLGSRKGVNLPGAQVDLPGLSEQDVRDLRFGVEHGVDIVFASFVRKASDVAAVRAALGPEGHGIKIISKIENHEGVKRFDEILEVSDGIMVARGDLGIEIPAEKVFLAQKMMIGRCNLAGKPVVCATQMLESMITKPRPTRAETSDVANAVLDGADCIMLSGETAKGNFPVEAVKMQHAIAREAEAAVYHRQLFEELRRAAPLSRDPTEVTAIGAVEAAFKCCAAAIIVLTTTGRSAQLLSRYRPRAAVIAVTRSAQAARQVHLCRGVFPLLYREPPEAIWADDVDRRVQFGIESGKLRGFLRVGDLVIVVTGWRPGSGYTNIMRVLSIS
Chain of UniProt Q8N884 (whole entry, looked up): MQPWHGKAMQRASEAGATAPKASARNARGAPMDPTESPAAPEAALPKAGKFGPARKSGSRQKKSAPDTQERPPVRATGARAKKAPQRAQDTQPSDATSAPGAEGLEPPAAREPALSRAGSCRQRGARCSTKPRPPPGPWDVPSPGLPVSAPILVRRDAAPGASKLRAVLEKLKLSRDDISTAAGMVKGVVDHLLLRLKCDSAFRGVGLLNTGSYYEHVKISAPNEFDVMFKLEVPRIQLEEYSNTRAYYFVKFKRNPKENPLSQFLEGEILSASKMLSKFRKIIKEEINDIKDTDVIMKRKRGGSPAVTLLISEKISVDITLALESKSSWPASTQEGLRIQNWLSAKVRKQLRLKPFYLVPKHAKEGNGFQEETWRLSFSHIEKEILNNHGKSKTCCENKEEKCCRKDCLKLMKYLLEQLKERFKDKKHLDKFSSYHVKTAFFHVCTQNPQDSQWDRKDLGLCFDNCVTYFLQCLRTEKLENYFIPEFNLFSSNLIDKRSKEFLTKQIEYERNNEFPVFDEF
Chain of UniProt P14618 (whole entry, looked up): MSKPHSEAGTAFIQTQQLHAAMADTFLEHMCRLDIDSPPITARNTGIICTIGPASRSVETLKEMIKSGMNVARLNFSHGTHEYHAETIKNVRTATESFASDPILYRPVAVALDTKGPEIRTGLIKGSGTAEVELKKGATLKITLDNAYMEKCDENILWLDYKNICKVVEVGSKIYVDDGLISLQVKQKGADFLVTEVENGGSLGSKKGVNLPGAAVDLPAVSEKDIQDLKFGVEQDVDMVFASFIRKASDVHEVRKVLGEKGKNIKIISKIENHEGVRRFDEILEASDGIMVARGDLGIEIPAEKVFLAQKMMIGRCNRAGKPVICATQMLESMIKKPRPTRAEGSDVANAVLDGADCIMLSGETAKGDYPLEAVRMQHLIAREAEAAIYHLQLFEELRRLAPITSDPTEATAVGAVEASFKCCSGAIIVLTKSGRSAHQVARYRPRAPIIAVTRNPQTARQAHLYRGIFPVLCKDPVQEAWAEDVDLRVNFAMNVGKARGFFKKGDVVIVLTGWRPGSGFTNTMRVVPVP
Chain of UniProt P10145 (whole entry, looked up): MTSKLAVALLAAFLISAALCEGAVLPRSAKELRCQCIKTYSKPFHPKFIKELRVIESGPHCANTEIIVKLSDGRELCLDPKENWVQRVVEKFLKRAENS
Chain of UniProt P55085 (whole entry, looked up): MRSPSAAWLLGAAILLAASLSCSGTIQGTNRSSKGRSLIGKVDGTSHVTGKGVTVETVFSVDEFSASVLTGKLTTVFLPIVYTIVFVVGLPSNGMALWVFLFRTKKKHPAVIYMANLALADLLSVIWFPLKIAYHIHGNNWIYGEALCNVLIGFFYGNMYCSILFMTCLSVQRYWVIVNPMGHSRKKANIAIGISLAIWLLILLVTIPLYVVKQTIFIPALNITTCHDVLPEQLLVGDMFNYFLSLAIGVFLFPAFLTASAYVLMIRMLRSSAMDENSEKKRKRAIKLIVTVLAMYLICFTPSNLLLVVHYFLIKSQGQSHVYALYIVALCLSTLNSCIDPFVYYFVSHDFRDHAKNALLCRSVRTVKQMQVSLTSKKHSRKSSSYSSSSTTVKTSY
Chain of UniProt P35414 (whole entry, looked up): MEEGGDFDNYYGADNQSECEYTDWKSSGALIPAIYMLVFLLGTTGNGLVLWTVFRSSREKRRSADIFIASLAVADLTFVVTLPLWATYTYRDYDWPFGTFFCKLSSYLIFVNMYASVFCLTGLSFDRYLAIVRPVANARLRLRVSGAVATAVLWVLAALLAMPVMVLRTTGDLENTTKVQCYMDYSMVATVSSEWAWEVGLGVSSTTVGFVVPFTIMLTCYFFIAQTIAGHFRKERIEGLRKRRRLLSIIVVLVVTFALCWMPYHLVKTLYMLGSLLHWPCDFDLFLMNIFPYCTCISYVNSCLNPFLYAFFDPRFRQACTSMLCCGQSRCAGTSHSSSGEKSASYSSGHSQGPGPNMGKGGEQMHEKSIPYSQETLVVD
Chain of UniProt P17787 (whole entry, looked up): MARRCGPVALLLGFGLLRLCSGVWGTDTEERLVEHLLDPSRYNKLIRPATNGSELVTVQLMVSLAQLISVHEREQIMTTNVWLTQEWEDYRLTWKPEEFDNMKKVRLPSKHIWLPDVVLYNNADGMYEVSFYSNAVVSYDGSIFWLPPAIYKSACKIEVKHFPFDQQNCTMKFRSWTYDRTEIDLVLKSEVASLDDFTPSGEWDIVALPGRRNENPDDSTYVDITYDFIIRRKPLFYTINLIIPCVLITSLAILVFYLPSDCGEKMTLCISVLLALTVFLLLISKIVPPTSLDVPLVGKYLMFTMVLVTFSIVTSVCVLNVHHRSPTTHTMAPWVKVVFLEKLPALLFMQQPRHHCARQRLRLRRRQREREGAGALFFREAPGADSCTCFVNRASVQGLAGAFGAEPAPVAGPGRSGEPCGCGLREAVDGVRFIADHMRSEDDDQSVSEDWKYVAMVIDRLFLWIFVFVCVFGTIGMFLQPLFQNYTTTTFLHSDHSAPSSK

With `CSc1ccc(C(=O)/C=C/c2cc(C)c(OC(C)(C)C(=O)O)c(C)c2)cc1` the EC50 was 0.1 µM (PPARA; receptor activation, agonist, cell-based).
`O=Cc1ccc(-n2ccnc2)nc1` has an EC50 of greater than 1000 µM (YWHAG/RELA phospho-Ser45 p65 peptide; ternary complex formation, stabilizer, fluorescence anisotropy).
`CCOCc1nc(O)c(-c2nnc(Cc3ccc(Cl)cn3)o2)c(O)c1-c1c(OC)cccc1OC` has an EC50 of 0.0197 ± 0.00435 µM (Apelin receptor (APLNR, Homo sapiens, UniProt P35414); Gα13/PDZ–RhoGEF activation, agonist, BRET biosensor; HEK293).
`CN1CC2c3ccccc3Oc3ccc(Cl)cc3C2C1` (stereo not drawn) gave an EC50 of 0.0197 µM (5-hydroxytryptamine receptor 1A, with Goα P315D (HTR1A, Homo sapiens, UniProt P08908)).
The EC50 of `CCCCC[C@H](O)/C=C/[C@H]1[C@H](O)CC(=O)[C@@H]1C/C=C\CCCC(=O)O` is reported as 0.221 µM (PTGER1 (Homo sapiens, UniProt P34995, M117A); IP1 accumulation, agonist; AD293; EP1 M117A mutant).
For `CC1(C)S[C@@H]2[C@H](NC(=O)[C@H](NC(=O)N3CCNC3=O)c3ccccc3)C(=O)N2[C@H]1C(=O)O`, the Kd was 2.14 nM (Nuclear receptor subfamily 2 group C member 2 ligand-binding domain; SPR imaging).
`COC(=O)c1ccccc1OC1=NS(=O)(=O)c2ccccc21` gave an EC50 of 0.77 µM (PKLR; enzyme activity, activator; 30 min, 24 °C, together with: 0.125 mM PEP and 0.1 mM ADP).
`O=Cc1ccc([N+](=O)[O-])c(N2CCc3ccccc3C2)c1` has an EC50 of greater than 1000 µM (YWHAG/RELA phospho-Ser45 p65 peptide; ternary complex formation, stabilizer, fluorescence anisotropy).
For `Cc1nn(-c2nc3c(F)cc(F)cc3s2)c(O)c1C(c1ccc(C(F)(F)F)cc1)c1c(C)nn(-c2nc3c(F)cc(F)cc3s2)c1O`, the EC50 was 4.61 µM and 5.89 µM (Cyclic GMP-AMP synthase, catalytic domain; with DNA (CGAS, Homo sapiens, UniProt Q8N884); cGAS phase separation, inhibitor).
`Cn1ccc(NC(=O)c2ccc(C=O)cc2)n1` has an EC50 of greater than 1000 µM (YWHAG/RELA phospho-Ser45 p65 peptide; ternary complex formation, stabilizer, fluorescence anisotropy).
`CO[C@H]1O[C@H](COS(=O)(=O)O)[C@@H](O[C@@H]2O[C@@H](C(=O)O)[C@@H](O[C@H]3O[C@H](COS(=O)(=O)O)[C@@H](O[C@@H]4O[C@H](C(=O)O)[C@@H](O[C@H]5O[C@H](COS(=O)(=O)O)[C@@H](O)[C@H](O)[C@H]5NS(=O)(=O)O)[C@H](O)[C@H]4O)[C@H](OS(=O)(=O)O)[C@H]3NS(=O)(=O)O)[C@H](O)[C@H]2OS(=O)(=O)O)[C@H](O)[C@H]1NS(=O)(=O)O` gave an EC50 of 90.4 ± 12.4 µM (Interleukin-8 (CXCL8, Homo sapiens, UniProt P10145); probe displacement, FP competition; protein 800 nM, together with: TAMRA-labelled sHA tetramer probe).
`CN1CCN(S(=O)(=O)c2ccc(C=O)cc2)CC1` has an EC50 of greater than 1000 µM (YWHAG/RELA phospho-Ser45 p65 peptide; ternary complex formation, stabilizer, fluorescence anisotropy).
The EC50 of `CNC(=O)c1ccccc1SC1=NS(=O)(=O)c2ccccc21` is reported as 0.84 µM (PKLR; enzyme activity, activator; 30 min, 24 °C, together with: 0.125 mM PEP and 0.1 mM ADP).
With `O=C(COP(=O)(O)O)[C@@H](O)[C@H](O)[C@H](O)COP(=O)(O)O` the EC50 was 0.0435 ± 0.0186 µM (Pyruvate kinase PKM (PKM, Homo sapiens, UniProt P14618); pyruvate kinase activity, activator; HeLa cell lysate; without AIM).
With `CCO[C@H](COc1ccc(C(F)(F)F)cc1)CSc1ccc(OCC(=O)O)c(C)c1` the EC50 was 3 µM (PPARA; receptor activation, agonist, cell-based).
The EC50 of `C[C@H](CCC(=O)NCC(=O)O)[C@H]1CC[C@H]2[C@@H]3[C@@H](O)C[C@@H]4C[C@H](O)CC[C@]4(C)[C@H]3CC[C@]12C` is reported as 34.6 ± 9.6 µM (GPBAR1 (Homo sapiens, UniProt Q8TDU6); agonist).
`COC1CCN(c2cc(C=O)ccc2[N+](=O)[O-])CC1` gave an EC50 of greater than 1000 µM (YWHAG/RELA phospho-Ser45 p65 peptide; ternary complex formation, stabilizer, fluorescence anisotropy).
With `O=S1(=O)N=C(Sc2ccccc2)c2ccccc21` the EC50 was 6 µM (PKLR; enzyme activity, activator; 30 min, 24 °C, together with: 0.125 mM PEP and 0.1 mM ADP).
For `CC[C@H](C)[C@H](NC(=O)[C@H](CC(C)C)NC(=O)[C@@H](N)CO)C(=O)NCC(=O)N[C@@H](CCCNC(=N)N)C(=O)N[C@@H](CC(C)C)C(N)=O`, the EC50 was 0.668 µM (F2RL1 (Homo sapiens, UniProt P55085); agonist, cell-based).
`CC1(C)Cc2c(sc(NC(=O)c3ccn[nH]3)c2C(N)=O)C(C)(C)O1` gave an EC50 of 3.6 ± 1.92 µM (cftr (Danio rerio, UniProt Q1LX78, L1146N); chloride current, activator, inside-out patch clamp; CHO cells transfected).
`O=Cc1ccc([N+](=O)[O-])c(N2CCC(N3CCCC3)CC2)c1` gave an EC50 of greater than 1000 µM (YWHAG/RELA phospho-Ser45 p65 peptide; ternary complex formation, stabilizer, fluorescence anisotropy).
For `CCOc1ccc(NC(=O)O[C@@H](Cn2nc(C(C)C)cc2C(C)C)C(C)C)cc1`, the EC50 was 1.3 ± 0.3 µM (Neuronal acetylcholine receptor; alpha4/beta2 (Homo sapiens, UniProt P17787+P43681); potentiation of ion current, potentiator, TEVC; low-sensitivity (α4)3(β2)2, together with: ACh 10 µM).
The EC50 of `COCCN1CCN(c2cc(C=O)ccc2[N+](=O)[O-])CC1` is reported as greater than 1000 µM (YWHAG/RELA phospho-Ser45 p65 peptide; ternary complex formation, stabilizer, fluorescence anisotropy).
`CN1C(C(=O)Nc2ccccn2)=C(O)c2sc(Cl)cc2S1(=O)=O` gave a Kd of 0.00934 nM (Nuclear receptor subfamily 2 group C member 2 ligand-binding domain; SPR imaging).
